Assay results pooled from the literature.
Numbers after ± are the reported error.

The chains behind the UniProt entries cited, without tags or fusion partners. Residues count along the entry.
UniProt P14902, whole entry: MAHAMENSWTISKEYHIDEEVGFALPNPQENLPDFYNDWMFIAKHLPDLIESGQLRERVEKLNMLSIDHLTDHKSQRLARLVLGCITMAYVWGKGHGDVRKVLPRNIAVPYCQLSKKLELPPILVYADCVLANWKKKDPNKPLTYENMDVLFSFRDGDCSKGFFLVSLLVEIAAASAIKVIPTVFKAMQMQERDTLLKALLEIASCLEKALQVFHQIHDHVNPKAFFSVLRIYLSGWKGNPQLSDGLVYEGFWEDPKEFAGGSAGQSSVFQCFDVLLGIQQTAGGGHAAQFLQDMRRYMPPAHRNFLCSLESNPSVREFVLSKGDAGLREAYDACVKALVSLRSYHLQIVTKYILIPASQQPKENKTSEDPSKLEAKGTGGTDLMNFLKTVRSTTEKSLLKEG
UniProt P03372, whole entry: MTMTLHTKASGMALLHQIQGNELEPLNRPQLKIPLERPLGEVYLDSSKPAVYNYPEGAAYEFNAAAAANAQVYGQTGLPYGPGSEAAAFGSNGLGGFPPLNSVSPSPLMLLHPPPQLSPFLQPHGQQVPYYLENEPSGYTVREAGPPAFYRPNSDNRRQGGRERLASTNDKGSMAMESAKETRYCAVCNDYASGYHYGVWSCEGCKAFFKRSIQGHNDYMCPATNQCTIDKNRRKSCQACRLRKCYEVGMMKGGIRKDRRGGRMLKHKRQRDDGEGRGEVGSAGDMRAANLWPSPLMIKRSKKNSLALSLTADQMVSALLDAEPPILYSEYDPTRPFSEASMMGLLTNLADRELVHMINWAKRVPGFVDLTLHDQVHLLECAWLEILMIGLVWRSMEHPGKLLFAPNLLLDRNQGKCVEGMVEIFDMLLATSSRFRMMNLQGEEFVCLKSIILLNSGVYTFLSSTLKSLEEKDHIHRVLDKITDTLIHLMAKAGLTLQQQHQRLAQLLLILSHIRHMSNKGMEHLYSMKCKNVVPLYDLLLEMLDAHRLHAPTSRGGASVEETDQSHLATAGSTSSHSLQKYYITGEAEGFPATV
UniProt A0A381MCS3, 1-451: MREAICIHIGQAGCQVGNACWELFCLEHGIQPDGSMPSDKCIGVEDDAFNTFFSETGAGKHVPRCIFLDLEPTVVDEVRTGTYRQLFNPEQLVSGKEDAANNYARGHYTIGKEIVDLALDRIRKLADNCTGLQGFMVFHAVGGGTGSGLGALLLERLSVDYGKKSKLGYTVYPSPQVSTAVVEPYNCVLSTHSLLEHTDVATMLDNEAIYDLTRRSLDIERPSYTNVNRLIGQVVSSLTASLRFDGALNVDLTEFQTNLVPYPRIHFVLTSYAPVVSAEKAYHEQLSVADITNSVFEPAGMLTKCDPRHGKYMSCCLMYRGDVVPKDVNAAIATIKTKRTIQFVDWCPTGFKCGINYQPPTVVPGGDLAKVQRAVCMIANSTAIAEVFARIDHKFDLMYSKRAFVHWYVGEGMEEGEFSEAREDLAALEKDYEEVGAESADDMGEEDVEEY
UniProt A4HTR0, 1-443: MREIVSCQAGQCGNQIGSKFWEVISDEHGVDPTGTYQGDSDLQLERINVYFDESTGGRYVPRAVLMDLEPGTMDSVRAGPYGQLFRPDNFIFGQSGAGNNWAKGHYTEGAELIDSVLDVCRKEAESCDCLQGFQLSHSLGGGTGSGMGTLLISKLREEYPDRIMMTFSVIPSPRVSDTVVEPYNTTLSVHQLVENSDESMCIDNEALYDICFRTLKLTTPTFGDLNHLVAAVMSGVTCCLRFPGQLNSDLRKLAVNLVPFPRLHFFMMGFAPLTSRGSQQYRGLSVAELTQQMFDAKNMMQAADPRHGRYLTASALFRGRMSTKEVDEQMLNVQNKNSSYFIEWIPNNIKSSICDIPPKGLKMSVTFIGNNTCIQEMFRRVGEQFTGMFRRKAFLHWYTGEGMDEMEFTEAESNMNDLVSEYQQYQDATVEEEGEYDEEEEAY
UniProt P31421, 19-872 limits assumed: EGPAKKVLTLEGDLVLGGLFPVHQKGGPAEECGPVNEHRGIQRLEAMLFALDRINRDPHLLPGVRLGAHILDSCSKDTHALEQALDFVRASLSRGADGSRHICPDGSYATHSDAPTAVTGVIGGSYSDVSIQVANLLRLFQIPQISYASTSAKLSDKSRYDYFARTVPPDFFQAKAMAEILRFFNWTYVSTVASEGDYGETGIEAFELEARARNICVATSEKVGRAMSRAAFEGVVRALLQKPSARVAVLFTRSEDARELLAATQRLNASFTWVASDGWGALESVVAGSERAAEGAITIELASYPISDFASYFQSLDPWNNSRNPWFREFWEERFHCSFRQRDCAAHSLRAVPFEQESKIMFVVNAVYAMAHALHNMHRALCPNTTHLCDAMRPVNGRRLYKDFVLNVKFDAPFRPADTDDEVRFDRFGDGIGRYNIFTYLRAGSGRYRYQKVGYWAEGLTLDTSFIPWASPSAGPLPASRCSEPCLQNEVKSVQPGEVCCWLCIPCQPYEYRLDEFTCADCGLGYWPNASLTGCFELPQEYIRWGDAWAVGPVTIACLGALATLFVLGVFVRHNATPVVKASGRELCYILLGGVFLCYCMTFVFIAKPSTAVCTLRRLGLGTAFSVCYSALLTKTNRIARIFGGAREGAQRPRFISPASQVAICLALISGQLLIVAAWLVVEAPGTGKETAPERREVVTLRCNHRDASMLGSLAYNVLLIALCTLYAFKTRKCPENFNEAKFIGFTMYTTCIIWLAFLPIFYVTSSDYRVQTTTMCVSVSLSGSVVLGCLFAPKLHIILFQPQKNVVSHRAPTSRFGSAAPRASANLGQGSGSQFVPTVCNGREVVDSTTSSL
UniProt P40306, whole entry, looked up: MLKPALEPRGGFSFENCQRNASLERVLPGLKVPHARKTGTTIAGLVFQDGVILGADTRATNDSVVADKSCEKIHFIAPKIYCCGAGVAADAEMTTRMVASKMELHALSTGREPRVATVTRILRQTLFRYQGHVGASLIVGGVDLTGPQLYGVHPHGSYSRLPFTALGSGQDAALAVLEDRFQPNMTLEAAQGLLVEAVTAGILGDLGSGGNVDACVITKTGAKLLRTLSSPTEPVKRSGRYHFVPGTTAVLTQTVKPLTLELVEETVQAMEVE
UniProt P49720, whole entry, looked up: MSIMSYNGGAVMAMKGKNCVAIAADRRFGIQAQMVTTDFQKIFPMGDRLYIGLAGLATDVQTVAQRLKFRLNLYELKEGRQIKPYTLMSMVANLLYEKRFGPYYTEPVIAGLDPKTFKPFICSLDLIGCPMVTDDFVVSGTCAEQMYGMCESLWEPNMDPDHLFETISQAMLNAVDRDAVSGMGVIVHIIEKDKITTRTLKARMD
UniProt Q04609, whole entry: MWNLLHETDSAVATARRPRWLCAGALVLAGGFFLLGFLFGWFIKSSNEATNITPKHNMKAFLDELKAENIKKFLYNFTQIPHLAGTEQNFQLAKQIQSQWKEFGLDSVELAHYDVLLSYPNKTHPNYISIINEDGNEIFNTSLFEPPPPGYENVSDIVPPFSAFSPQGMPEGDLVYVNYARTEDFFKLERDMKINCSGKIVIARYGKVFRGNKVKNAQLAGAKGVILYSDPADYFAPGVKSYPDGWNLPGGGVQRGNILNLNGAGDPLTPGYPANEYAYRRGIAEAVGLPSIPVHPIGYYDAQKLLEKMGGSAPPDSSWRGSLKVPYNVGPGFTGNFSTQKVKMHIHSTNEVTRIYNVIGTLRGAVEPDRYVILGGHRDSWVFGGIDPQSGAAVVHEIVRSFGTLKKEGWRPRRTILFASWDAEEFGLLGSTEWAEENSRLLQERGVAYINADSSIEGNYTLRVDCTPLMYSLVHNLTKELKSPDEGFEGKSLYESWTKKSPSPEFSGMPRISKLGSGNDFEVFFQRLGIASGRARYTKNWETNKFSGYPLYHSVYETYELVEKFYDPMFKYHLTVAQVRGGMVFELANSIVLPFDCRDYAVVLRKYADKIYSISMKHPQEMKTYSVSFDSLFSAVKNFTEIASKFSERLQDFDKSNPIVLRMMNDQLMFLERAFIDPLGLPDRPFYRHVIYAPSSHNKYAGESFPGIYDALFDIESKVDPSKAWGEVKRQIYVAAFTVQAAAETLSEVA
UniProt P11362, 22-822 limits assumed: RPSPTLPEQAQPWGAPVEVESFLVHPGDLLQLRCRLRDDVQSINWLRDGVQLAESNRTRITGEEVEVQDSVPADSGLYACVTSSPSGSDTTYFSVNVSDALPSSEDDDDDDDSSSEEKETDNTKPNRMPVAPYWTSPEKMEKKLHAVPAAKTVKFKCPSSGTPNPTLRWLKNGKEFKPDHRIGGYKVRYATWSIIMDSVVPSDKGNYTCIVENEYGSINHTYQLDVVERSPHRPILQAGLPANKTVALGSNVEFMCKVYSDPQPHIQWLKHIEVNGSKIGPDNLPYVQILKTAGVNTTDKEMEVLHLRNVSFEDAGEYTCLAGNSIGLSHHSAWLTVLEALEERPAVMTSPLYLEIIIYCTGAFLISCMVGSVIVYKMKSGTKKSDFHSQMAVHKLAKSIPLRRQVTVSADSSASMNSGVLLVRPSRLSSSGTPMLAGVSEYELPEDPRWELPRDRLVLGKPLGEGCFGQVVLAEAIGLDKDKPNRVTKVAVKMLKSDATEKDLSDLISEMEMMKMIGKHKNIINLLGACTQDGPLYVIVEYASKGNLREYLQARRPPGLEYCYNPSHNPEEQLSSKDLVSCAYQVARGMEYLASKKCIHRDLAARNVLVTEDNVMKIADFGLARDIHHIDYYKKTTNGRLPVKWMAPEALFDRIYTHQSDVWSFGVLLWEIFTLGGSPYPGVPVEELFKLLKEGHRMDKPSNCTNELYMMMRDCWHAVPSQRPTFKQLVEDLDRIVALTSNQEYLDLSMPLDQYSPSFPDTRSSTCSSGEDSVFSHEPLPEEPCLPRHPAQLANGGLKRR
UniProt Q9BV23, whole entry: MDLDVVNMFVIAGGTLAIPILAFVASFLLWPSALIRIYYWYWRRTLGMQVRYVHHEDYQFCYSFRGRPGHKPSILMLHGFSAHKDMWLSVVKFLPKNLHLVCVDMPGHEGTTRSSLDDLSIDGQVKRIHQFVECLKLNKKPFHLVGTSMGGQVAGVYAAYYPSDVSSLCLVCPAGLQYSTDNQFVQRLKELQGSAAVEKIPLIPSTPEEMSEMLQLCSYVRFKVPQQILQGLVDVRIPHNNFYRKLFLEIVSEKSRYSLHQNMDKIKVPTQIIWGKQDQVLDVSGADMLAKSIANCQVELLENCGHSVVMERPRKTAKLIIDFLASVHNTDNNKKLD
UniProt P31749, whole entry: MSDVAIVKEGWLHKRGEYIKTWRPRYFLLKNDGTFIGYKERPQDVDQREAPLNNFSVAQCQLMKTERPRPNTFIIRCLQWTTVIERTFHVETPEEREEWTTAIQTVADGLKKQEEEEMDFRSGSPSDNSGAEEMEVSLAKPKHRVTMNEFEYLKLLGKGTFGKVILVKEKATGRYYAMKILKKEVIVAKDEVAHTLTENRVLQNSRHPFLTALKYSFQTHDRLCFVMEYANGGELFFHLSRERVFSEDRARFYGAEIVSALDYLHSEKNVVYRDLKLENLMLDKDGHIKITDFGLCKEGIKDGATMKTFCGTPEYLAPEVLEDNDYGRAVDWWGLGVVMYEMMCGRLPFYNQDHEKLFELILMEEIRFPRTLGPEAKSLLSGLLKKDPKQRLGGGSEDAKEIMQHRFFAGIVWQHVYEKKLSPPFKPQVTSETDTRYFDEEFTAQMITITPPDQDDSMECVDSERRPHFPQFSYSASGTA
UniProt P26038, whole entry, looked up: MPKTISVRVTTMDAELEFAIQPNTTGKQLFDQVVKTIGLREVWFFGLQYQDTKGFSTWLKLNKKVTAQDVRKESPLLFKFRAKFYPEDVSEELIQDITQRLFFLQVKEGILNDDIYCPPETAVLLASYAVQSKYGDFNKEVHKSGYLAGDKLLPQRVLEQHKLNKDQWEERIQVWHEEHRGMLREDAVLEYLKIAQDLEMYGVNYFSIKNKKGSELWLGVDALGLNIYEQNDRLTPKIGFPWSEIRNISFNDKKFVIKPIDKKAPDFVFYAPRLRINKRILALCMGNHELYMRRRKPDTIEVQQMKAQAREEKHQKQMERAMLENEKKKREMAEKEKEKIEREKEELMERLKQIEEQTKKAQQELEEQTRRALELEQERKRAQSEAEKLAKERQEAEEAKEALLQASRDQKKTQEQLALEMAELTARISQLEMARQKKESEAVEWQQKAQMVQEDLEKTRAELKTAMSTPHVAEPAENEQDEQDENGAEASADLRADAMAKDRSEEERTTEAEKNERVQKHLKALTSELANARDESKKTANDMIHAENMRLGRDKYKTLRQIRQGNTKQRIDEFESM
UniProt P00519, 242-493 limits assumed: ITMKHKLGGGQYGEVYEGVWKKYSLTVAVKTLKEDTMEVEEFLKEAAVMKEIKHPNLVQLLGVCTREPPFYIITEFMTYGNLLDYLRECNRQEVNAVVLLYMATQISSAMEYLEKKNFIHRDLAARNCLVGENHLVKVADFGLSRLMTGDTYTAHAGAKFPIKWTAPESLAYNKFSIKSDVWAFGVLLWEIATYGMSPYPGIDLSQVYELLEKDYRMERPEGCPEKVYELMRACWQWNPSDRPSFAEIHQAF

SMILES	target	assay	test system	setting	scale	IC50 [nM]
CC(=NN=C1NC(=O)C(CC(=O)Nc2ccc(Cl)c(Cl)c2)S1)c1cccs1 (stereo not shown)	PPP3CA (Homo sapiens, UniProt Q08209)	phosphatase activity, inhibitor, malachite green		added: phosphopeptide substrate at Km		> 200000
N#Cc1ccc2[nH]cc(/C=C/c3cccnc3)c2c1	IDO1 (Homo sapiens, UniProt P14902)	enzyme activity, inhibitor				> 100000
Nc1ccccc1-c1nc2ccccc2[nH]c1=O	Protein diaphanous homolog 1, FH2 domain (Diaph1, Mus musculus, UniProt O08808)	actin assembly, inhibitor, pyrene-actin polymerization				> 50000
O=C(CCCCCCCn1c(=S)[nH]c2ccccc2c1=O)N1CCN(c2cccc(Cl)c2)CC1	Estrogen receptor (ESR1, Homo sapiens, UniProt P03372)	reporter gene, antagonist	HEC-1 cells transfected with ERα	added: estradiol 1 nM		4200
CN1CC[C@H](c2c(O)cc(O)c3c(=O)cc(-c4cccnc4)oc23)[C@H](O)C1	Cyclin-dependent kinase 2, part with cyclin A (CDK2, Homo sapiens, UniProt P24941)	enzyme activity, inhibitor		with cyclin A, added: histone H1 substrate		247
CCOC(=O)COC(=O)[C@@H]1C(C=O)=Cc2cc3c(cc2[C@H]1c1cc(OC)c(OC)c(OC)c1)OCO3	Tubulin alpha/beta heterodimer (Leishmania infantum, UniProt A0A381MCS3+A4HTR0)	tubulin polymerization, inhibitor		37 °C, added: tubulin 1.2 mg/mL		900 ± 100
NC(=O)c1cn(-c2ccc(F)cc2)c2ccc(CN3CCS(=O)(=O)CC3)cc2c1=O	Grm2 (Rattus norvegicus, UniProt P31421)	calcium mobilization, negative allosteric modulator				870
CN1CCC[C@@H]1C(=O)N[C@@H](Cc1ccc(-c2ccccn2)cc1)B(O)O	Proteasome subunit beta type-10 / Proteasome subunit beta type-3 (Homo sapiens, UniProt P40306+P49720)	β2i enzyme activity, inhibitor		added: Ac-KQL-AMC		> 10000
CC(C)OC(=O)OCOC(=O)CCC(CP(=O)(O)O)C(=O)O (stereo not shown)	FOLH1 (Homo sapiens, UniProt Q04609)	inhibitor, radioenzymatic		added: tritiated NAAG substrate		1 ± 0.1
Cc1ccc2oc(-c3c4c(N)n[nH]c(=O)c4nn3-c3ccc(S(C)(=O)=O)cc3)c(C)c2c1	FGFR1 (Homo sapiens, UniProt P11362)	kinase activity, inhibitor, ELISA				44.8 ± 10.7
O=C(Cn1c(-c2cscn2)nc2ccccc21)Nc1ccc2ccccc2c1	IMPDH2 (Homo sapiens, UniProt P12268)	enzyme activity, inhibitor			lower bound	≥ 40000
O=C(OC(C(F)(F)F)C(F)(F)F)N1CCc2ccc(Br)cc2C1	ABHD6 (Homo sapiens, UniProt Q9BV23)	inhibitor, fluorescence				394 ± 4.3
O=C1NC(=S)NC(=O)C1=Cc1cn(C(=O)c2ccc3ccccc3c2)c2ccccc12	DNA polymerase eta (POLH, Homo sapiens, UniProt Q9Y253)	DNA polymerase activity, inhibitor, fluorescence		added: dTTP 100 µM		25000
Clc1ccc(C2(c3ccc(-c4ncnc5[nH]cnc45)cc3)CCNCC2)cc1	AKT1 (Homo sapiens, UniProt P31749)	kinase activity, inhibitor, radiometric HotSpot		added: ATP 10 µM		38
COCCCNc1nc(-c2ccc(-c3ccccc3)cc2)cs1	ALK (Homo sapiens, UniProt Q9UM73)	ELISA				27000
COc1ccc(-c2nc(C(F)(F)F)nn2-c2ccc(OC)nc2)cc1	PTGS2 (Homo sapiens, UniProt P35354)	PGE2 production, inhibitor, enzyme immunoassay	human whole blood			> 1000
O=C(Nc1ccc(-c2nc3ccccc3[nH]2)cc1)c1ccccc1F	Moesin, with CD44 (Homo sapiens, UniProt P26038)	MSN-CD44 interaction, inhibitor, TR-FRET		added: CD44		> 100000
N=C(N)NCCC[C@H](NC(=O)c1cc(C(=O)O)cc([C@H]2CCN[C@@H]2C(=O)O)c1)C(=O)O	kainate receptor (rat)	binding, radioligand binding	rat cortical synaptosomes	added: [3H]kainate		10000
COc1cc(Nc2ncnc(-c3cccnc3Nc3cc(NC(=O)c4cccc(C(F)(F)F)c4)ccc3C)n2)cc(OC)c1OC	ABL1 (Homo sapiens, UniProt P00519)	enzyme activity				10 ± 3

Repeated from above:
SMILES	target	assay	test system	setting	scale	IC50 [nM]
O=C(CCCCCCCn1c(=S)[nH]c2ccccc2c1=O)N1CCN(c2cccc(Cl)c2)CC1	Estrogen receptor (ESR1, Homo sapiens, UniProt P03372)	reporter gene, antagonist	HEC-1 cells transfected with ERα	added: estradiol 1 nM		4200
CN1CC[C@H](c2c(O)cc(O)c3c(=O)cc(-c4cccnc4)oc23)[C@H](O)C1	Cyclin-dependent kinase 2, part with cyclin A (CDK2, Homo sapiens, UniProt P24941)	enzyme activity, inhibitor		with cyclin A, added: histone H1 substrate		247
CCOC(=O)COC(=O)[C@@H]1C(C=O)=Cc2cc3c(cc2[C@H]1c1cc(OC)c(OC)c(OC)c1)OCO3	Tubulin alpha/beta heterodimer (Leishmania infantum, UniProt A0A381MCS3+A4HTR0)	tubulin polymerization, inhibitor		37 °C, added: tubulin 1.2 mg/mL		900 ± 100
